Published values gathered from unrelated publications.
Numbered parts are unrelated; each lists some results of a single study.

Series 1 — method: EMSA with sequencing; form: double-stranded DNA, one strand shown; sample: in vitro; tested at: 10 and 20 nM; baseline: negative control set to 0; direction: higher = stronger binding
Target: Hepatocyte nuclear factor 3-alpha (Foxa1, Mus musculus, UniProt P35582, residues 1-468, full length assumed)
Notes: whole designed probe, mean of two concentrations, ends assumed
All sequences stand within: GTGAGCGGTGCCCATTGATGGGGAAC … TTTCACTGGGATCGTGGGGAC
Target sequence (chain): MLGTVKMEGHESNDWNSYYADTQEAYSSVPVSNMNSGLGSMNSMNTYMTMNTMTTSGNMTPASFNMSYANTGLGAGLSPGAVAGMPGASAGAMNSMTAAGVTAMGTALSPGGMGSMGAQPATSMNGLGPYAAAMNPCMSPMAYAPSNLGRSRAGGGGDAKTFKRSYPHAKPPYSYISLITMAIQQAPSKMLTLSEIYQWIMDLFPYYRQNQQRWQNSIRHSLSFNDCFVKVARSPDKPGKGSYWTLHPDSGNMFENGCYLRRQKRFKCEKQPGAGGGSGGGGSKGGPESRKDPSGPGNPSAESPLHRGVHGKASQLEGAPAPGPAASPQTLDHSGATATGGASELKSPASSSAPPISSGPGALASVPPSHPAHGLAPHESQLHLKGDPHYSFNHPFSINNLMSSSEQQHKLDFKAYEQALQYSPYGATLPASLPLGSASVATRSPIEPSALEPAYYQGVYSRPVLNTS
Oligonucleotide | normalised bound fraction
AAACAGTTCTGTTAGGAAAGATCAGCAAACACCACGTGCAGCAACTCAACAAGCATCTCTATCCTGCCTCTGGCGAGCACATGTTATTTCTAAGCCATCTGCGCCACCTAGTGGAAATATAAATCCTCTTCATGTGGCAAATCGCCGGTGTTTTACAGTAATACTGCAGCTTCTCAATTCTTTCTTTTTGCAC | 0.0604 ratio
TCGGCCAGCCTGGCTTCTGCGCCCCGCCAGGAGGTCGCGGAGCGGAGCGCGGCCAGGAAGTGAGCTGAGAGTGACAGCTCCCCCCACGCGAGAATAAACAAACAATGACTCATTCTCCACACACTGGCTCTTCTTTCTTTCGGGAGGAGGGGAGAAAGGAGCGGGAGGGCGGGCGGGCAGGGGAGAGGCAGGC | 0.349 ratio
GGGTCAGAGGAGCTTACAGTGAGTGGACAAAGCAAATATAATCCTGCCTTACTAATTTCGTAGGATATTCACCTTTCTGAAGTCACACAAATGTAAACATGAAAAATATTCATTATAAAAGAAACCTAGGGAAAGTGCAAACACTTGAAGAATGTGCATTTTTTACAATTGCATTTGTTTTATTCAAGCGCTT | 0.419 ratio
TTTTGCCTGTGATGTTAAAACTGATTAATGTGAAGAAAATGCAATGCTTTTATCCATCATGAGCTTTGAGGGGGGAAAAAAGTTTTAGAGAAAAGTAATCTAGTAAAAACAAAGGATTAAATAGGAAAATGAAGAGTGCTGGCCTAGCATTTAGGGCATTTGATATCCTGTGGACTTCTAATTAATTAAGCAG | -0.0286 ratio
ATCTTCCCCCTCTTCCTTGCCCCACCAGCTCACCTTCCCGGGTTGTTTACTTTGAGCAAAGTAAACAAAGCCGGCATTCGTTAACCCTCTTCTGGCGCAAACTGCTGTTTGCTCTGGATGAATCATGGTCCTTTGGCGACGCCAGGCTCCGGGAGAGCAAAGCACCGTGTCAGGGCCATGATCCGGGGTGGCC | 0.524 ratio

Series 2 — method: protein binding microarray; form: double-stranded DNA, one strand shown; sample: in vitro; tested at: not given; baseline: not given; direction: higher = stronger binding
Target: Histone acetyltransferase KAT6A, winged helix 1, GST fusion (KAT6A, Homo sapiens, UniProt Q92794, residues 1-85)
Notes: 8-mer, flanks averaged, mean of 2 arrays, mostly near background
Construct (chain): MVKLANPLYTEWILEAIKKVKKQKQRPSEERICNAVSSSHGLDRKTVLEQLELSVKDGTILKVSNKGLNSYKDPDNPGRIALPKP
Oligonucleotide | E-score
CAAGGTTA | -0.0492
TAATTTGA | -0.0487
ACTAATAA | -0.137
CGCCTTGA | 0.0934
ACCCGTTC | 0.16
ACTAATGG | -0.258
AGAAATAG | -0.257
ACAGCAAT | -0.141
GTAAAATA | -0.164
ACACGGAC | 0.215
AAATGTAT | -0.133
TAGGGGGA | -0.0902
CACGTATG | -0.0803
ACTGTGAG | -0.184
CCCGTCCC | 0.311
CACTGGAA | -0.2
AGCGGGCC | 0.297
CGCCAAGA | 0.0691
GCAAGTGA | -0.14

Series 3 — method: RNA Bind-n-Seq; form: RNA; sample: in vitro; tested at: not given; baseline: input RNA pool; direction: higher = stronger binding
Target: RING finger protein unkempt homolog, zinc fingers 1-6, GST-SBP tag (UNK, Homo sapiens, UniProt Q9C0B0, residues 30-357)
Notes: RNA with constant flanks, human-mouse chimeric sites, ends assumed
All sequences stand within: GGGAGUUCUACAGUCCGACGAUC … CAACAGAGGAUUGAGCAUCA
Target sequence (chain): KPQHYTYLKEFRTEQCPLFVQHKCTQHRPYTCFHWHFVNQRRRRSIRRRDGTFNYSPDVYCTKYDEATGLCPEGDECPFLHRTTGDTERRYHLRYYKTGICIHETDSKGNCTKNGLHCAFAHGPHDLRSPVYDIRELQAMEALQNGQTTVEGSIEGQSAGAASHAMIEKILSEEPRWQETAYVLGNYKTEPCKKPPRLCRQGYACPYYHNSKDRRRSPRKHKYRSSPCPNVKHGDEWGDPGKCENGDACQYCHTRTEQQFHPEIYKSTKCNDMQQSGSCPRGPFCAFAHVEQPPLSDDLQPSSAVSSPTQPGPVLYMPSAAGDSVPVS
Oligonucleotide | bound/input enrichment [ratio]
UCCUUGGACCCCAGUCAUAUAGGUGACCUGCAGAAAGCAGACACCAGUAGUCAAGGUGCUUUAGUGUUUCUCUCAAAGGACUACGAGAUAGAAAAUCAAAAUCCCCUGGCCUCUCCUACG | 1.46
UUGAAAACUGAUUCAAGUAAGUUUGAGUAUCACAAUGUUAGCUUUCUAAUUCCAUAAAAGUACUUGGUUUUUACAGUAACCCCACAUACAUCACCCCAGCGCCAUUUAGAUCAGCUUACU | 1.78
UAUCCAACUUUCUUGCCACAUUUUGAAUUCCAAGAUGUUAUUCCUCCAGAUGACUUCCUAACGAGUGAUGAAGAGCAAGAUUUGGUUUUAUUUGGAACUAUGAGAGGACAAGUUGUUGGA | 0.186
AAAGGCAAAAAGGGCAGCUGUGUCAUUUCAUAAGUAACUCUGGGGGAGGGAAAUUCUGUUCUUUUGUUUAAUUUUCCCCCAAAUGAAACCAACAUGCGUGUUGAAGAACUGAGAAAAAAU | 0.357
UUAAUCCCCUUUACUGCUCCACCACUGCUCAUGGUAAUAACAAAGUCUUAUAUCCCCAUAUUAGCUUUCACUCAGAUGGCUUAUGGAGCCGGUUUCCUAGCUUUCUUGGGAGGGAUCAGA | 0.356
UCAUUUUUCUCUUUUCUGAUCGUCAGGUAGGAAAAGCCUAAAGAUUAGUAAGAAAAGAAAACAGAAGCCAUGUUUCGAAGACCUGUGUUACAGGUAUUUCGUCAGUUUGUAAGACAUGAG | 1.68
GGGACUGAUUCAUCCCAAGGACAGGCCACCCCAUUUGAUGCCUGGACUGACGACAGUAUGGAAGGGCCUAGUCAAAAUUUUGAAGCUGAGUCAAUUCAGGAUGCCAUGAGUAUGGAAGAG | 0.423
GCUGGAUCUUCUAAGUACCAGUGGGACAUUAUGAAAUCCCUUGGGCUCUCUGAUGACGACAUAGUGAAGUUUUCUGAAGCAGAGCACUGGCUUGAUUAUUUCCCACCACUGGCUAUUCAG | 0.0815

Series 4 — method: RNA Bind-n-Seq; form: RNA; sample: in vitro; tested at: 365 nM; baseline: no-protein control; direction: higher = stronger binding
Target: RNA binding protein fox-1 homolog 2, RRM domain, GST-SBP tag (RBFOX2, Homo sapiens, UniProt O43251-10, residues 100-194)
Notes: natural RNA segment, single round, ends assumed
All sequences stand within: GGGAGUUCUACAGUCCGACGAUC … UGGAAUUCUCGGGUGCCAA
Residues (chain): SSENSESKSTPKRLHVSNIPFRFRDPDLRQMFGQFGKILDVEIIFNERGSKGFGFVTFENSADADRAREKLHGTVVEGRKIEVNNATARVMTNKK
Oligonucleotide | RBNS enrichment (R)
GUUUUAGAAAUGGCACAUAGGCUUCUAUUACCUGUUAGGUGGAGAUUUUGUAUGUAAAUGUGUUAGCACUGAUAGUCCUUUUCCAGUGUUUUAUUGGGAAAUUAAAUAGU | 1.56
UUGGAUAUGGAUUUAAAUGGUCUCUAAGAGCCGGGGGUAGGGGGCAGGAAAAGUGGGUUGUCUUUGCCCCUCAAAGUCCACCUACCUAGAAACCAAGCCCACGGUCUUGG | 0.39
UUUCUAUGACUGCAGGGUUUUUUUAUACAGUGUUUUUGGAUUCAUAAUAAAUUGAUGGUUUUUUAUGACAUGCUUUUCUGCCCCACCAUGUUGAUUUGUGACCAGUGUCC | 0.854
AUCGGCUGGAGCAUGGGACCAUAGCCCCUGCCCAGGAGCCGUACCCUCGGACCACAGUGGCUCUGUAUGGCCAGGAACUGGGACUCGAGCUUUCAGAUUCUCAACUAGCC | 0.416
GUGUGGUUAGUGGAAGACCUGGAGACAAAGGGGACUGUGGCUGGUGUCACCUGGAGAUGCCCUCUAUUGUGGCUUGGUUGGGCUUGUGUUUGAAAUGCUUUACAAAGGAA | 2.03
CAAAAUUAGGGAGCUCUUGACAGAAAGCAGUUCUGAUGCUUACAUCUGGAAUCUGAGGCAUCCUCUGACUCCACUCAAAGAGGGUGAGGGCCUUCUUAAGAUACAAAUGG | 0.403
UAGCCAGAGAAUGGUUCAAAUGUCUUACAGAACUAAGAUCUUUUUCAGAGAAAUUGCUCACAAAAGUUAGUGACAGUUGUAUUUAUUUUUUUAAGUUACAAUAAAAUGCU | 0.851
AUCUUGCUACCCGCUUUUGCCUGACUCAGACUCCAGCUCUCAUACAGCUCUGUCUGCCACACACGUGCAAGCAAUUGUGAUUUAGAGUCACCUCCUAUCCCAUUUGAUCU | 0.288

Some of these lines once more (series 3):
Oligonucleotide | bound/input enrichment [ratio]
UCCUUGGACCCCAGUCAUAUAGGUGACCUGCAGAAAGCAGACACCAGUAGUCAAGGUGCUUUAGUGUUUCUCUCAAAGGACUACGAGAUAGAAAAUCAAAAUCCCCUGGCCUCUCCUACG | 1.46
AAAGGCAAAAAGGGCAGCUGUGUCAUUUCAUAAGUAACUCUGGGGGAGGGAAAUUCUGUUCUUUUGUUUAAUUUUCCCCCAAAUGAAACCAACAUGCGUGUUGAAGAACUGAGAAAAAAU | 0.357
UUAAUCCCCUUUACUGCUCCACCACUGCUCAUGGUAAUAACAAAGUCUUAUAUCCCCAUAUUAGCUUUCACUCAGAUGGCUUAUGGAGCCGGUUUCCUAGCUUUCUUGGGAGGGAUCAGA | 0.356
UCAUUUUUCUCUUUUCUGAUCGUCAGGUAGGAAAAGCCUAAAGAUUAGUAAGAAAAGAAAACAGAAGCCAUGUUUCGAAGACCUGUGUUACAGGUAUUUCGUCAGUUUGUAAGACAUGAG | 1.68
UAUCCAACUUUCUUGCCACAUUUUGAAUUCCAAGAUGUUAUUCCUCCAGAUGACUUCCUAACGAGUGAUGAAGAGCAAGAUUUGGUUUUAUUUGGAACUAUGAGAGGACAAGUUGUUGGA | 0.186
